Measured values of several laboratories.
Lines come from different studies, so protocols differ.

COc1cc(N2CCC(N3CCN(C)CC3)CC2)ccc1Nc1ncnc(Nc2ccccc2S(=O)(=O)C(C)C)n1 — Cmax (human, dose expansion arm, plasma; oral, 200 mg, day 28, mean): 1760 ng/mL
O=C(COc1ccc(Cl)cc1)NC12CC(c3nnc([C@H]4C[C@@H](OC(F)(F)F)C4)o3)(C1)C2 — Cmax (healthy human volunteers fasted, plasma; oral, 800 mg single dose, geometric mean): 7.16 µM
CCOc1c([C@H](C)n2nc(C)c3c(N)ncnc32)cc(Cl)c(F)c1[C@@H]1CNC(=O)C1 — Cmax (human patients, plasma; oral, 30 mg, day 1, geometric mean): 2.11 µM
COc1ncc(-c2nc3c(n2C(C)C)[C@H](c2ccc(Cl)cc2)N(c2cc(Cl)cn(C)c2=O)C3=O)c(OC)n1 — Cmax (LC-MS/MS; human, plasma; oral, 12.5 mg, cycle 1 day 1, high-dose arm): 118 ng/mL
C[C@@H]1CCO[C@H]2Cn3cc(C(=O)NCc4ccc(F)cc4F)c(=O)c(O)c3C(=O)N12 — Cmax (human paediatric patients, weight sample C to under sample D kg, plasma; oral, 25 mg film-coated tablet, steady state, geometric mean, population PK post-hoc, N 26): 2650 ng/mL
C[C@@H](Nc1cc(F)cc(F)c1)c1cc(C(=O)N(C)C)cc2c(=O)cc(N3CCOCC3)oc12 — Cmax (human, dose-finding arm, plasma; oral, 120 mg twice daily, geometric least-squares mean, together with: abiraterone 1000 mg): 982 ng/mL
CC(C)[C@H](N)C(=O)NCCCS(=O)(=O)O — Cmax (human, plasma; oral, 171 mg twice daily days 2-7, day 7, fasted, capsule): 4830 ng/mL
CCN1CCN(Cc2ccc(Nc3ncc(F)c(-c4cc(F)c5nc6n(c5c4)[C@H](C)CCC6)n3)nc2)CC1 — Cmax (human, plasma; 100 mg single dose, mean): 107 ng/mL
CCn1cc(C(=O)N2CCOCC2)c(=O)c2cc(NC3Cc4ccccc4C3)cnc21 — Cmax (human, fasted; oral tablet, 300 mg single dose, arithmetic mean): 1730 ng/mL
CN1C(=O)[C@@H](NC(=O)c2nnc(Cc3ccccc3)[nH]2)COc2cccnc21 — Cmax (healthy human, fasted, plasma; oral, 100 mg single dose, geometric mean): 1780 ng/mL
Cl.[2H]C([2H])([2H])CC(=O)c1cnc(NC(=O)C2CC2)cc1Nc1cccc(-c2ncn(C([2H])([2H])[2H])n2)c1OC — Cmax (human, fed, multiple dose; oral, 60 mg once daily, tablet, day 1, geometric mean): 357 ng/mL
CNC(=O)c1ccc(-c2cnc3ncc(Cc4ccc5ncccc5c4)n3n2)cc1F — Cmax (human mild hepatic impairment NCI; oral, 200 mg single dose, mean): 1910 ng/mL
C=CC(=O)N(C)CCOc1c(N)ncnc1-c1cc(F)cc(NC(=O)c2ccc(C3CC3)cc2F)c1C — Cmax (human; oral, 30 mg single dose): 64.8 ng/mL
CO[C@H]1C[C@@H]2CC[C@@H](C)[C@@](O)(O2)C(=O)C(=O)N2CCCC[C@H]2C(=O)O[C@H]([C@H](C)C[C@@H]2CC[C@@H](OC(=O)NCCOCCOCCOCCOCCOCCOCCOCCOCCC(=O)N3CCc4cc(Cn5nc(-c6ccc7oc(N)nc7c6)c6c(N)ncnc65)ccc4C3)[C@H](OC)C2)C[C@@H](O)[C@H](C)/C=C(\C)[C@@H](O)[C@@H](OC)C(=O)[C@H](C)C[C@H](C)/C=C/C=C/C=C/1C — Cmax (human, plasma; intravenous, 3 mg, cycle 1 day 15, arithmetic mean): 120 ng/mL

Some of these lines once more:
C[C@@H](Nc1cc(F)cc(F)c1)c1cc(C(=O)N(C)C)cc2c(=O)cc(N3CCOCC3)oc12 — Cmax (human, dose-finding arm, plasma; oral, 120 mg twice daily, geometric least-squares mean, together with: abiraterone 1000 mg): 982 ng/mL
